Assay results gathered from unrelated publications.
Every numbered part comes from another study and shows a few of its results, in no order. Values joined by “and” are separate records of one study, mostly repeats; a detail may differ.
Chain of UniProt P05771 (whole entry, looked up): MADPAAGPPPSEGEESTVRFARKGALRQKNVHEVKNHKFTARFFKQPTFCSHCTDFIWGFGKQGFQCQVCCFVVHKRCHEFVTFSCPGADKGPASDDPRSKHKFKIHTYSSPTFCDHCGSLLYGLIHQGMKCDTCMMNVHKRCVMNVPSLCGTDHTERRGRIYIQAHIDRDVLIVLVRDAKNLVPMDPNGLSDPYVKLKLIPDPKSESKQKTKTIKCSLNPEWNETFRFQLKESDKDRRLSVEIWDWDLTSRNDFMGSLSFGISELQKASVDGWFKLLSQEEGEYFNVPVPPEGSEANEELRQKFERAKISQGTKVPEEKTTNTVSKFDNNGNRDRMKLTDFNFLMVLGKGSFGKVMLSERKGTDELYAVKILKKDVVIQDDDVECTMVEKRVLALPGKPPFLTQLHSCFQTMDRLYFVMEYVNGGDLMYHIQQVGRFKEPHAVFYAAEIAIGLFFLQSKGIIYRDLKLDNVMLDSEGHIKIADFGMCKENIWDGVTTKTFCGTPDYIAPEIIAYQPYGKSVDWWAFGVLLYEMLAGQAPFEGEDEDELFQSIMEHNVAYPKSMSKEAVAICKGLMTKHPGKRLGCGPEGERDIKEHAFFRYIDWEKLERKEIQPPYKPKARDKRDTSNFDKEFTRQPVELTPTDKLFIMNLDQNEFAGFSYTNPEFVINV
Chain of UniProt Q6XUX3 (whole entry, looked up): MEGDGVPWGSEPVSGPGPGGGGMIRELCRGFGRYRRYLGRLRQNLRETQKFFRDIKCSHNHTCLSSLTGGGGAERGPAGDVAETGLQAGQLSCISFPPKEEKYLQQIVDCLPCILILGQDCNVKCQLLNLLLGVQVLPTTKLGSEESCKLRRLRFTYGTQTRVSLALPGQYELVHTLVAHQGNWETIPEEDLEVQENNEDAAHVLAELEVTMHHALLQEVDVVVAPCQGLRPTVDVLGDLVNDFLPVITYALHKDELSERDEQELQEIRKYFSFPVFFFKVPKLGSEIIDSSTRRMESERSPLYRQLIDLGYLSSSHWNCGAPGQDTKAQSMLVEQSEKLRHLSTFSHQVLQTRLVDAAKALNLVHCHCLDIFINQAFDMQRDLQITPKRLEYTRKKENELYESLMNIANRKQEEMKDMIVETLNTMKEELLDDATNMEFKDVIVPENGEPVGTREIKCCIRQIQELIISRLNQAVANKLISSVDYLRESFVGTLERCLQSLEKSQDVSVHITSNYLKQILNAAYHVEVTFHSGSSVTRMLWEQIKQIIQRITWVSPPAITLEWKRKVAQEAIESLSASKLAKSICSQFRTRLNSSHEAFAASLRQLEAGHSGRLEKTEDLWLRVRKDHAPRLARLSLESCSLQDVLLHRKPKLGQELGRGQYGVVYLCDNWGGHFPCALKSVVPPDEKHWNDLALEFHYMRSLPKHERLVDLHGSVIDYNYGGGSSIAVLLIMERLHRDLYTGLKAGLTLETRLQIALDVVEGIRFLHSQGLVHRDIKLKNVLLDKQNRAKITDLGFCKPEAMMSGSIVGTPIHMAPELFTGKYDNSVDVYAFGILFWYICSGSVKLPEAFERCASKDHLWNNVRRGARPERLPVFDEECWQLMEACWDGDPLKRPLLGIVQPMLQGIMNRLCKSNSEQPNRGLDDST
Chain of UniProt Q16539 (whole entry, looked up): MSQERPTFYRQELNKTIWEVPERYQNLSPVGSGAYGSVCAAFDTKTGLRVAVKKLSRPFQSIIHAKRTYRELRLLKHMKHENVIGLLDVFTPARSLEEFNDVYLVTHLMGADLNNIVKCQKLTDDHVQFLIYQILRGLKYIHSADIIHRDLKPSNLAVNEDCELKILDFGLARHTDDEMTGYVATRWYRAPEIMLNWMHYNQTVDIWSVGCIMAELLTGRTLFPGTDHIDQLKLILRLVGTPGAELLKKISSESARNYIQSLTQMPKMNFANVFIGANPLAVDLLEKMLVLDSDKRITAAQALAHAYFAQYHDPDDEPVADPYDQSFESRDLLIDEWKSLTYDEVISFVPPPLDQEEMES
Chain of UniProt Q9UBS0 (whole entry, looked up): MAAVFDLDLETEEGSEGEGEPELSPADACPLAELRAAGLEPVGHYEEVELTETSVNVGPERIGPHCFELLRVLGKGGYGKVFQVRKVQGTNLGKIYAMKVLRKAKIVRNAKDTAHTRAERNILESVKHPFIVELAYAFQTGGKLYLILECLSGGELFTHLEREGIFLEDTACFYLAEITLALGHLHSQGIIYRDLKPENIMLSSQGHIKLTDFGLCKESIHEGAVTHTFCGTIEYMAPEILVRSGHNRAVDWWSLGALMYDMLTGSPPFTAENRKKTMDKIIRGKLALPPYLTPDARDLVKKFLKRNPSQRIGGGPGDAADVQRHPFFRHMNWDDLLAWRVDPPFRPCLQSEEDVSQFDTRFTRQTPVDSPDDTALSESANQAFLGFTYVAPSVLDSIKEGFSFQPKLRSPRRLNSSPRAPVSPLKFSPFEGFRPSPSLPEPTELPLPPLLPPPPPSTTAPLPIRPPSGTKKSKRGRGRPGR
Chain of UniProt Q08881 (whole entry, looked up): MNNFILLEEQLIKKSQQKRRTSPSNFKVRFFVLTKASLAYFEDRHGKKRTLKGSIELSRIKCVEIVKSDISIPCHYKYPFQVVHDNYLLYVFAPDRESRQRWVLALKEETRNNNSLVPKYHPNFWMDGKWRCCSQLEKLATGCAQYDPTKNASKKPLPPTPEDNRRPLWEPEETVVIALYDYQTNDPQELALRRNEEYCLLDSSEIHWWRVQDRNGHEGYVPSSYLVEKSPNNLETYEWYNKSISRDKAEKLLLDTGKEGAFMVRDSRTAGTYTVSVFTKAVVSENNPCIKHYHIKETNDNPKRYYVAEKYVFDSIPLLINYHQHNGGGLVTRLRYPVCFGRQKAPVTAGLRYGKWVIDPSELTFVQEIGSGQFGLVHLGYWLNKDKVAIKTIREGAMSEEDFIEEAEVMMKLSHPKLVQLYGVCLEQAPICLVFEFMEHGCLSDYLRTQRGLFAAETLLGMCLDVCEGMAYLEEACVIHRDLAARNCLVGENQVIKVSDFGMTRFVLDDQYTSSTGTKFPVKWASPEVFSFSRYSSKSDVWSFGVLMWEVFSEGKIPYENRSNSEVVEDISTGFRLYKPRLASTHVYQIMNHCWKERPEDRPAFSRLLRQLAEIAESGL
Chain of UniProt O00141 (whole entry, looked up): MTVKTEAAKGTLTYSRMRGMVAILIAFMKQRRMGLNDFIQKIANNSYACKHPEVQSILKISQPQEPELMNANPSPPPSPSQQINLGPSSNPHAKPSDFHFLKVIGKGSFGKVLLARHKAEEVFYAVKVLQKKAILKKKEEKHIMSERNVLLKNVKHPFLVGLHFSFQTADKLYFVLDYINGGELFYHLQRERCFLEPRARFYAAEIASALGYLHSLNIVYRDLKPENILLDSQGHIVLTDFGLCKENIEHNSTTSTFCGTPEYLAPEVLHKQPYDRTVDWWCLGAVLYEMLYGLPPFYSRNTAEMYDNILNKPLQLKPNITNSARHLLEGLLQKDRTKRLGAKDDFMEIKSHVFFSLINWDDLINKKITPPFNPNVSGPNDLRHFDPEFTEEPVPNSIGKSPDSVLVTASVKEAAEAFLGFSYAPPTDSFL
Chain of UniProt Q9H093 (whole entry, looked up): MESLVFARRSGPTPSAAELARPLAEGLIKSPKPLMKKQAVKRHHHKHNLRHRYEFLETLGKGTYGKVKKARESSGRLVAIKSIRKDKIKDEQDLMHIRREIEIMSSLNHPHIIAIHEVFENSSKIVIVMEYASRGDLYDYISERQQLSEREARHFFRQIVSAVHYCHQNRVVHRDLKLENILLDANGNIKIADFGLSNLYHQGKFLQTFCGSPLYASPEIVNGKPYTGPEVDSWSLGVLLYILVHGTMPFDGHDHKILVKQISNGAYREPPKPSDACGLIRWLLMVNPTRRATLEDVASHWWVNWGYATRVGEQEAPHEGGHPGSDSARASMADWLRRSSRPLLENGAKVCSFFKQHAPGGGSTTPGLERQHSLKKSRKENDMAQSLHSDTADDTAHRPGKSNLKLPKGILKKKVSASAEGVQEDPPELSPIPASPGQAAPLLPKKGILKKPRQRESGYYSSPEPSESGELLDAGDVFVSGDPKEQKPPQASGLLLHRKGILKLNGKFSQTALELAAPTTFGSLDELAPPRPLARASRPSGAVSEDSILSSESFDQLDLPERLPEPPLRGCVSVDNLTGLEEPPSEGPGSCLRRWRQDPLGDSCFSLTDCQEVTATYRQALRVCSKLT

Sample 1
Target: Protein kinase C gamma type (PRKCG, Homo sapiens, UniProt P05129)
Read-out: enzyme activity
Mode: inhibitor
Tested at: 0.5 µM
Reference: control
Structure (SMILES) | remaining activity [%]
Nc1nc(Nc2ccc(S(N)(=O)=O)cc2)nn1C(=O)c1c(F)cccc1F | 81.3
O=C1Cc2c([nH]c3ccc([N+](=O)[O-])cc23)-c2ccccc2N1 | 92.5
O=C1NC(=O)C(c2c[nH]c3ccccc23)=C1c1c[nH]c2ccccc12 | 91.4
Cc1cncc2cccc(S(=O)(=O)N3CCCN(C(=O)CN)C[C@@H]3C)c12 | 101
CC#CC(=O)Nc1cc2c(Nc3ccc(F)c(Cl)c3)ncnc2cn1 | 97.2
O=S(=O)(NCCNC/C=C/c1ccc(Br)cc1)c1cccc2cnccc12 | 83.8
COc1cc(Nc2c(C#N)cnc3cc(OCCCN4CCN(C)CC4)c(OC)cc23)c(Cl)cc1Cl | 93.6
CC(=O)c1ccc(N2CCOCC2)cc1O | 98.7
N#CC(=C(N)Sc1ccc(N)cc1)c1ccccc1C(F)(F)F | 99.5
CSc1nc(-c2ccnc(N[C@@H](C)c3ccccc3)c2)c(-c2ccc(F)cc2)[nH]1 (racemic) | 101
CC(C)(C)n1nc(Cc2cccc3ccccc23)c2c(N)ncnc21 | 101
Nc1nccc(-c2c(-c3ccc(F)cc3)ncn2C2CCNCC2)n1 | 87.8
COc1ccc(S(=O)(=O)N(CCO)c2ccccc2CN(C)CC=Cc2ccc(Cl)cc2)cc1 | 95.1
CCCC(=O)Oc1ccc2[nH]c(C(=O)c3cc4ccccc4[nH]3)cc2c1 | 99
CC[n+]1c(/C=C/N(C)c2ccccc2)n(-c2ccccc2)c2ccc(-c3nc4ccccc4s3)cc21 | 99.4
NC(=O)c1ccc(N(C(N)=O)c2c(F)cccc2F)nc1-c1ccc(F)cc1F | 91.3
Cc1cc(Nc2nc(-c3ccccc3)nc3ccccc23)n[nH]1 | 98.6
Oc1ccc(Nc2nc(-c3ccc(Cl)cc3)cs2)cc1 | 87.3
Cc1ccc(NC2=CC(=O)c3sc(C)nc3C2=O)cc1 | 77
Nc1ncnc2c1cnn2-c1ccccc1 | 103
CCc1[nH]c(-c2ccc(OC)cc2)nc1-c1ccncc1 | 95.5

Sample 2
Species: mouse
Medium: microsomes or S9
Tested at: 2 µM
Time: 0.5 h
SMILES | remaining compound [%]
CC(C)(C)OC(=O)NC1CCN(c2nccn3c(=O)[nH]nc23)CC1 | 29.4
CSc1nnc(N2C(N)=C(C#N)C3(C(=O)Nc4ccc(F)cc43)C3=C2CC(C)(C)CC3=O)s1 (stereo not drawn) | 93.3
CC(=O)N1CCC(C(=O)N2CCN(c3cc(Cl)ccc3C)CC2)CC1 | 60
COc1ccccc1N1C[C@@H]2C[C@@H](c3nccn3-c3cccc(C)c3)N3CCC[C@@]23C1=O | 27.6
CC1(C)CC(NS(=O)(=O)c2ccccc2F)CC(C)(C)N1 | 92.4
COc1c(C(C)(C)C)cc(C(=O)COc2ccc(O)cc2)c(O)c1I | 28.2
O=C1NN=C(c2ccc(F)cc2)Cn2c1cc1ccccc12 | 6.4
Cc1noc2nc3c(c(C(=O)N4CCC5(CCCN(C)C5=O)C4)c12)CCC3 (stereo not drawn) | 46.7
COc1cc(=O)n(C)cc1C(=O)NC1CCCC1 | 73.9
COc1cc(Nc2ncnc3c2cnn3-c2ccc(C)cc2C)cc(OC)c1OC | 17.9
CCOC(=O)C(=Cc1cn(-c2ccccc2)nc1-c1ccc(OC)c(OC)c1)C(=O)OCC | 0.692
CC(C)c1ccc(-c2cn3c4ccccc4nc3n2CCN2CCCCC2)cc1 | 0.469
COC(=O)c1cc(I)c(N)c(I)c1C | 78.6
CC(C)n1cc(CNS(=O)(=O)c2cc(F)cc(Cl)c2)nn1 | 2.42
Cn1cc(NC(=O)N2CCCC(S(=O)(=O)N3CCc4ccccc43)C2)cn1 (stereo not drawn) | 19.9

Sample 3
SMILES: O=C(Nc1cnn(-c2csc(C(=O)NC3COC3)c2)c1)Nc1c(F)cccc1Cl
Read-out: enzyme activity
Tested at: 5 µM
target | mode | reference | remaining activity
RPS6KB2 (Homo sapiens, UniProt Q9UBS0) | – | untreated control | 99.9%
MAPK14 (Homo sapiens, UniProt Q16539) | – | untreated control | 104%
NUAK2 (Homo sapiens, UniProt Q9H093) | – | untreated control | 95.9%
Protein kinase C beta type, isoform beta-II (PRKCB, Homo sapiens, UniProt P05771) | – | untreated control | 98.6%
SGK1 (Homo sapiens, UniProt O00141) | – | untreated control | 91.7%
DSTYK (Homo sapiens, UniProt Q6XUX3) | inhibitor | – | 95.5%
ITK (Homo sapiens, UniProt Q08881) | – | untreated control | 92.3%

Sample 4
SMILES: CC(C)(C)c1cnc(CSc2cnc(NC(=O)C3CCN(CCCCCCCCSc4cccc5c4CN(C4CCC(=O)NC4=O)C5=O)CC3)s2)o1 (stereo not drawn)
cell line | read-out | method | tested at | time | reference | viability
HuT78 | – | trypan blue exclusion | 250 nM | 48 h | untreated control | 25% and 27.8%
HuT78 | – | trypan blue exclusion | 1000 nM | 48 h | untreated control | 11.3% and 19.1%
HuT78 | cell growth or viability | trypan blue | 50 nM | 48 h | – | 86.7%
HuT78 | – | trypan blue exclusion | 1 nM | 48 h | untreated control | 100% and 98.3%
HH | – | CCK-8 | 1 nM | – | – | 100% and 102%
HuT78 | cell growth or viability | trypan blue | 1 nM | 48 h | – | 99.8%
HuT78 | cell growth or viability | trypan blue | 10 nM | 48 h | – | 98.3%
HH | – | CCK-8 | 250 nM | – | – | 0%

Some of these lines once more (sample 1):
Structure (SMILES) | remaining activity [%]
Cc1ccc(NC2=CC(=O)c3sc(C)nc3C2=O)cc1 | 77
Nc1nccc(-c2c(-c3ccc(F)cc3)ncn2C2CCNCC2)n1 | 87.8
Nc1nc(Nc2ccc(S(N)(=O)=O)cc2)nn1C(=O)c1c(F)cccc1F | 81.3
